Assay results collected from several papers.
A part holds a random share of what one study measured.

Study 1 — method: RNA Bind-n-Seq; form: RNA; medium: in vitro; concentration: 365 nM; relative to: no-protein control; direction: higher = stronger binding
Target: RNA binding protein fox-1 homolog 2, RRM domain, GST-SBP tag (RBFOX2, Homo sapiens, UniProt O43251-10, residues 100-194)
Notes: natural RNA segment, single round, ends assumed
Target sequence (chain): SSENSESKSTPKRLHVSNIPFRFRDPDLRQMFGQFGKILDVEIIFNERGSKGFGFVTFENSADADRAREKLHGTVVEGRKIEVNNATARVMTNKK
| Sequence | RBNS enrichment (R) |
| --- | --- |
| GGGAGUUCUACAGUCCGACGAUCCCAGGGCCUGCAUGGGGGCACCGGGCUCCAUGCCUCUGGAGGCCUCUGGCCCUCGGUGGCUGCACAGAAGGGCUCUUUCUCUCUGCUGAGCUGGGCCCAGCCCCUCCACGUGGAAUUCUCGGGUGCCAA | 4.62 |
| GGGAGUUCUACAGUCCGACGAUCAAAGCCAUAUUCCAGCAGUGAAACUUGUGCUAUAGUGUAUACCACCUGUACAUACAUUGUAUAGGCCAUCUGUAAAUAUCCCAGAGAACAAUCACUAUUCUUAAGCACUUUGGAAUUCUCGGGUGCCAA | 0.351 |
| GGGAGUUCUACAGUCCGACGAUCCAGAUUGAGGCCACUUUUGAGCAAGGGAGAUCCUGGAGUUAAGACAGGUGUUGGGGGCAGCCUGUAUUUUACCCUAGGGGCAGGUCUGCAUGGUGACCCCACAUUGCACUUGGAAUUCUCGGGUGCCAA | 1.49 |
| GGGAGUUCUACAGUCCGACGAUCUUCAGUUUUUAUAGUUGUGUUGGUUUUCUUAAUUGAUUUUUGUUAAUAAUACCUUAAUCCAGGGUAGGGAGACGUUGCACAAUGCAUUGCAUUAUAUAUACCUAUCACUGUGGAAUUCUCGGGUGCCAA | 0.789 |
| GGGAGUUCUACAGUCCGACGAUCACUAAGUAUUUUUUUGGUUCUUGUUUUUCUUUCAAAUAGCCAGGUUUUUUUCUUUUGGUAUUUGCAUAAAAUGAAAAUAUCACCGAAUAUUAAAUCACUGUGGAUCCAUUUGGAAUUCUCGGGUGCCAA | 0.508 |
| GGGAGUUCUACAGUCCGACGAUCCCAGGUGAGAGGAGACUGCCAGCGAGUCCCUAGAUCUUGUAGCCAUGAUACCACACAGUCAUUUCCCAAUCAGUGCCUCACACAUCUAUCUGAUGGUGCAGUUUUGGGGUUGGAAUUCUCGGGUGCCAA | 0.345 |
| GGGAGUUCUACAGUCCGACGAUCACAUGGAGGUGGAGCCUGCAGCUGGAGUGAGGCGCACACUUGACUCUACUUGCAGGUGGUUUGCUGAGCAGAGAGCUGAGGGACCCUCUUGACUGGGUAGGGGUCUUGUCUGGAAUUCUCGGGUGCCAA | 0.431 |
| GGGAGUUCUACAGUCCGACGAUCAUGUACACAUGUCUGUCUACUGUGCUUUCAGACAUAGAUAAAGCAUGAUAAAGAUUAUUAUUUAAGAUAUACUUGUAUUUAUACCUCAGAUAUUCUUUCGGGUUUUGUACUGGAAUUCUCGGGUGCCAA | 3.07 |

Study 2 — method: protein-binding microarray; form: double-stranded DNA, one strand shown; medium: in vitro; concentration: 2540 nM top; notes: 60-bp whole probe; with: salmon DNA 0.4 mg/ml; relative to: random background probes; direction: higher = stronger binding; all sequences stand within: GCCTAGCAC … GTCTTGATTCGCTTGACGCTGCTG
Target: Interferon regulatory factor 3, full length, phosphomimetic (IRF3, Homo sapiens, UniProt Q14653, residues 1-427, S386D/S396D/S398D/S402D/T404D/S405D)
Sequence of UniProt Q14653 (whole entry, unmodified, looked up): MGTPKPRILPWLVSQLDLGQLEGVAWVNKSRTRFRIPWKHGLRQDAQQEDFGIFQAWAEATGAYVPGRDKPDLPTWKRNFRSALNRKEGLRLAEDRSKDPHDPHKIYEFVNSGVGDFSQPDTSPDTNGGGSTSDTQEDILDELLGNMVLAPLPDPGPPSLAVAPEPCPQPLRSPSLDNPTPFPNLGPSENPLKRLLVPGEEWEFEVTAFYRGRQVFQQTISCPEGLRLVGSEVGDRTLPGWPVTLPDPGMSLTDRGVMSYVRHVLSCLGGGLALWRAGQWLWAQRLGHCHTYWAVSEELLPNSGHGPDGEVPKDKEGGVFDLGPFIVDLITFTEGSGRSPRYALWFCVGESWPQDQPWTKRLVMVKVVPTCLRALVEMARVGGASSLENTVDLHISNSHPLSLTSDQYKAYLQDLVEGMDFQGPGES
| Sequence | fitted relative affinity [z-score] |
| --- | --- |
| GACGGACTGCTTATCCTGGCGTGCTAG | -0.424 |
| TCACAAATGCCCTCTCCAACTGTGCTA | 0.333 |
| TTAGGTCTCCTTCTCCTTTAGTGCTAG | 4.03 |
| TACGGTCTCCTTATCCTGACGTGCTAG | 2.8 |
| GACGGTCTCCATATCCTGACGTGCTAG | 1.95 |
| TTAGGTTTCGCGTATCGGTTAGTGCTA | 2.28 |
| TTAGGTATCTGTCTCGGTTAGTGCTAG | 2.1 |
| TTAGGACTGGGGACTGGGTTGGTGCTA | -1.19 |
| TTAGGTCTAGGTCTCGGTTAGTGCTAG | -0.404 |
| GACGATTTCGGTTCCGGGACGTGCTAG | 6.24 |
| TTAGGTATCGGTCTCGGATAGTGCTAG | 4.15 |
| TTAGGACTGGGGACCGGGTTAGTGCTA | -0.888 |
| GGCGGTTTCGGTCTCGGGACGTGCTAG | 8.48 |
| CCAGAGTCCTGTTTGATAATGTGCTAG | 0.315 |
| GACCGTCTCCTTTTCCTGACGTGCTAG | 4.18 |
| GACTTTTTAGATATCTTTTTGTGCTAG | 1.23 |
| TTAGGTATCGACACTGTGTTAGTGCTA | 0.276 |
| GATGAACTGGGGTTTCGAGACGTGCTA | 0.131 |
| GACGGTTGCGGTTTCGGGACGTGCTAG | 6.62 |

Study 3 — method: RNA Bind-n-Seq; form: RNA; medium: in vitro; concentration: 1 µM; notes: whole 134-nt RNA, ends assumed; with: 150 mM KCl; relative to: input library; direction: higher = stronger binding
Target: Ras GTPase-activating protein-binding protein 1, C-terminal RGG region (G3BP1, Homo sapiens, UniProt Q13283)
Sequence of UniProt Q13283 (whole entry, looked up): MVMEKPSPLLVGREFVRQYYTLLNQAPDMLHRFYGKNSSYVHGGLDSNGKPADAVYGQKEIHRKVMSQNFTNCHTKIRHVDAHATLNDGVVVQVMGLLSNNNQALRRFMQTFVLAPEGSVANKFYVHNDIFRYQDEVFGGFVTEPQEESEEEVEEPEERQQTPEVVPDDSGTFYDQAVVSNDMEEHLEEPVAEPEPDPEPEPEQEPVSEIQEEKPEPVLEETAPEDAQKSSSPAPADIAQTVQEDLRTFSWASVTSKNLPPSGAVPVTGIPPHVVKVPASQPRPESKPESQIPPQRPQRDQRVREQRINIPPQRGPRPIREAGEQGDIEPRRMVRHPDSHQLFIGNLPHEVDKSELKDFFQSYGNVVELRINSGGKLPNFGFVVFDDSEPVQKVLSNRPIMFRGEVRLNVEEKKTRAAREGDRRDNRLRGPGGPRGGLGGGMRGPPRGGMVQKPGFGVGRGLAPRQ
| Sequence | log2 enrichment |
| --- | --- |
| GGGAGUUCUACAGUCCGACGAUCGCAGGAAGUAAAAACAUAUGGAAAUGCUUCGGAUAGUGGCAGGGGUGGGGGUUGCUAAGGAAAGGGUGGGAUGGGAGUGGGUAAAGAGUUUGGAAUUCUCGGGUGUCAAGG | 1.99 |
| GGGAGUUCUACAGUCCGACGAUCUGGGAGGUGGAUUUUGUUUAUUUUUUUAGCUCAUUUCCUGGGGUGGGAAUUUUUUUUUAAUAUGUGUCAUGAAUAAAGUUGUUUUUGAAAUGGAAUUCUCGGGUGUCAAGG | 3.62 |
| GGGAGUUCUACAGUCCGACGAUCUCAAGUCCUGUGCUACACAUCGUAUGUACCGAAUCGGAAAGGGAAAGGGGAAAGGAAAGUAUUAUGUUACGCCGUUCGGAUCUGCACUUCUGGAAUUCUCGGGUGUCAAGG | -1.58 |
| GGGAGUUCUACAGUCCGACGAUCCUGUGCUACACAUCGUAUGUACCGAAUCGGGGUUUUUUUGGUUUUUUUGGGUUUUUUUGGGAAAGUAUUAUGUUACGCCGUUCGGAUCUGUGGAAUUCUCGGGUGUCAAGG | -1.54 |
| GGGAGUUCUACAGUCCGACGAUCUGGGAGGUGGAUUUUGUUUAUUUUUUUAGCUCAUUUCCAGGGGUGGGAAUUUUUUUUUAAUAUGUGUCAUGAAUAAAGUUGUUUAUGAAAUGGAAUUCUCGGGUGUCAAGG | 2.61 |
| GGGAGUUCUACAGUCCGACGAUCAAGUCCUGUGCUACACAUCGUAUGUACCGAAUCGGGGAAAGGGAAAGGGGAAAGGGGAAAGUAUUAUGUUACGCCGUUCGGAUCUGCACUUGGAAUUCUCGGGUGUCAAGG | 1.02 |
| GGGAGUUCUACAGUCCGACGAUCUCCUGUGCUACACAUCGUAUGUACCGAAUCGGGCCCCCCGGGCCCCCCGGGGCCCCCCGGAAAGUAUUAUGUUACGCCGUUCGGAUCUGCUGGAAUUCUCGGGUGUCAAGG | -1.04 |
| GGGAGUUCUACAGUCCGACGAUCCCUCAAGUCCUGUGCUACACAUCGUAUGUACCGAAUCGGCCGGCCGGGGCCGGAAAGUAUUAUGUUACGCCGUUCGGAUCUGCACUUCCAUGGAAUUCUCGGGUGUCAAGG | -1.01 |
| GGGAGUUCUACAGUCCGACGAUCGCAGGAAGUAAAAACAAAUGGAAAUGCUUCGGAUAGUGGCAGGGGUGGGGGUUGCUAAGGAAAGGGGGGGAUGGGAGUGGGUAAAGAGUUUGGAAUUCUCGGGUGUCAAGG | 2.16 |

Study 4 — method: protein binding microarray; form: double-stranded DNA, one strand shown; medium: in vitro; concentration: not given; relative to: not given; direction: higher = stronger binding
Target: Histone acetyltransferase KAT6A, winged helix 2, GST fusion (KAT6A, Homo sapiens, UniProt Q92794, residues 85-181)
Notes: 8-mer, flanks averaged, mean of 2 arrays, mostly near background
Construct (chain): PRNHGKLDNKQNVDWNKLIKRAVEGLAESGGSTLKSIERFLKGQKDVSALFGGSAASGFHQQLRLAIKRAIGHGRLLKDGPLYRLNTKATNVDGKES
| Sequence | E-score |
| --- | --- |
| GTAATGCA | -0.0929 |
| AAATTTAC | 0.0525 |
| ACAACGTC | -0.195 |
| AGATGCAG | -0.0344 |
| CCCTAGAA | -0.0644 |
| CCCGCACA | 0.123 |
| CGAATACA | -0.00135 |
| ACACACAC | -0.00466 |
| ATATACTA | -0.014 |
| ACCGCCAG | 0.107 |
| GCCCAGGC | 0.148 |
| AAGTTCGA | 0.128 |
| GATACGGC | -0.0317 |
| CGACTATA | -0.165 |
| CTTCGTAA | -0.0236 |
| CACTGCCA | 0.234 |

For quick reference, copied from above (study 3):
| Sequence | log2 enrichment |
| --- | --- |
| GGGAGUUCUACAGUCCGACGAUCCCUCAAGUCCUGUGCUACACAUCGUAUGUACCGAAUCGGCCGGCCGGGGCCGGAAAGUAUUAUGUUACGCCGUUCGGAUCUGCACUUCCAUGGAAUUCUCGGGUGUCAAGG | -1.01 |
| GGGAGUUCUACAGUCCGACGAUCUGGGAGGUGGAUUUUGUUUAUUUUUUUAGCUCAUUUCCUGGGGUGGGAAUUUUUUUUUAAUAUGUGUCAUGAAUAAAGUUGUUUUUGAAAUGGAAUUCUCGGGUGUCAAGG | 3.62 |
| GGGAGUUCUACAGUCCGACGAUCUGGGAGGUGGAUUUUGUUUAUUUUUUUAGCUCAUUUCCAGGGGUGGGAAUUUUUUUUUAAUAUGUGUCAUGAAUAAAGUUGUUUAUGAAAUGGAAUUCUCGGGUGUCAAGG | 2.61 |
| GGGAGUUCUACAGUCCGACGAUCUCCUGUGCUACACAUCGUAUGUACCGAAUCGGGCCCCCCGGGCCCCCCGGGGCCCCCCGGAAAGUAUUAUGUUACGCCGUUCGGAUCUGCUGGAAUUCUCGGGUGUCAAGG | -1.04 |
| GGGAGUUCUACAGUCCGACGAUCGCAGGAAGUAAAAACAUAUGGAAAUGCUUCGGAUAGUGGCAGGGGUGGGGGUUGCUAAGGAAAGGGUGGGAUGGGAGUGGGUAAAGAGUUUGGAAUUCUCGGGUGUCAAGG | 1.99 |
| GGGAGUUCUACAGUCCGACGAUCGCAGGAAGUAAAAACAAAUGGAAAUGCUUCGGAUAGUGGCAGGGGUGGGGGUUGCUAAGGAAAGGGGGGGAUGGGAGUGGGUAAAGAGUUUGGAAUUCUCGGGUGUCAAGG | 2.16 |
| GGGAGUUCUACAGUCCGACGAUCUCAAGUCCUGUGCUACACAUCGUAUGUACCGAAUCGGAAAGGGAAAGGGGAAAGGAAAGUAUUAUGUUACGCCGUUCGGAUCUGCACUUCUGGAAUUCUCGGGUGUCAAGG | -1.58 |
